# Measured values of several laboratories.
# Each line is one published result; not all experiments were run side by side. Values joined by “and” are separate records of one study, mostly repeats; a detail may differ. ± gives the spread as reported.
SMILES,cell line,test,setting,EC50
[Cl-].[Cl-].[Ru+2].c1cnc2c(c1)ccc1cccnc12.c1cnc2c(c1)ccc1cccnc12.c1csc(-c2ccc(-c3ccc(-c4ccc(-c5nc6c7cccnc7c7ncccc7c6[nH]5)s4)s3)s2)c1,SK-MEL-28,"photocytotoxicity, resazurin","visible light, normoxia",0.0022 µM
C[n+]1cc2c3c(ccc2c2ccc4cc5c(cc4c21)OCO5)OCO3,iPSC-derived cardiomyocytes,"concentration-response curve, item: MyBP-C protein level",24 h,6.6 µM
Cc1ccc(C=NNC(=O)C2CC(=O)N(c3ccc(F)cc3F)C2)cc1 (centres unmarked),human foreskin fibroblasts CRL-4001,"cell viability, MTT",72 h,3.9 ± 0.2 µM
CN(C)c1ccc(C(=C2C=CC(=[N+](C)C)C=C2)c2ccc(N(C)C)cc2)cc1,iPSC-derived cardiomyocytes,"concentration-response curve, item: MyBP-C/MYH ratio",24 h,14.6 µM
CCCC[C@@H]1NC(=O)[C@H](Cc2ccc(O)cc2)NC(=O)[C@@H]2CCCN2C(=O)[C@H](CC(=O)O)NC(=O)[C@H](C)NC(=O)[C@H](Cc2ccccc2)NC(=O)[C@@H]2CSCCC(=O)N3CN(CN(C3)C(=O)CCSC[C@@H](C(=O)N[C@@H](CNC(=O)CCOCCOCCOCCOCCOCCOCCOCCOCCOCCOCCOCCOCCn3cc(CCC(=O)NCCC(=O)N(C)CC(=O)N(C)CC(=O)N(C)CC(=O)N(C)CC(=O)N(C)CC(=O)N(C)CC(=O)N(C)CC(=O)N(C)CC(=O)N(C)CC(=O)N(C)CC(=O)N[C@H]4CSCCC(=O)N5CN6CN(C5)C(=O)CCSC[C@H](NC(=O)[C@@H](CC(=O)O)NC(=O)[C@H](Cc5cccc7ccccc57)NC(=O)[C@@H]5CCCN5C4=O)C(=O)N[C@@H](CCSC)C(=O)N[C@@H](CCCCNC(=N)N)C(=O)N[C@@H](CC(=O)O)C(=O)N[C@@H](Cc4c[nH]c5ccccc45)C(=O)N[C@@H](CO)C(=O)N[C@@H]([C@@H](C)O)C(=O)N4CCC[C@H]4C(=O)N4C[C@H](O)C[C@H]4C(=O)N[C@@H](Cc4c[nH]c5ccccc45)C(=O)N[C@H](C(N)=O)CSCCC6=O)nn3)C(N)=O)NC1=O)C(=O)CCSC[C@H](NC(=O)[C@H](C)NC(C)=O)C(=O)N[C@@H]([C@@H](C)CC)C(=O)N[C@@H](CCC(=O)O)C(=O)N[C@@H](CCC(=O)O)C(=O)NCC(=O)N[C@@H](CCC(N)=O)C(=O)N[C@@H](Cc1ccc(O)cc1)C(=O)N2,human PBMC with HT-1376 coculture,IL-2 secretion,added: anti-CD3,0.0081 µM
CCn1cc(-c2cc(Cn3ccoc3=N)cc3c2CCN([C@@H](C)c2cc(OC)ccn2)C3=O)c(C(F)(F)F)n1,SNU878,"cell growth, inhibitor",120 h,> 30 µM
O=C(NN=Cc1ccccc1)C1CC(=O)N(c2ccc(F)cc2F)C1 (centres unmarked),human foreskin fibroblasts CRL-4001,"cell viability, MTT",72 h,> 500 µM
C=C1C(=O)O[C@@H]2/C=C(\C)CC/C=C(\C)CC[C@@H]12,iPSC-derived cardiomyocytes,"concentration-response curve, item: MyBP-C protein level",,> 50 µM
CC[C@H](C)[C@H](NC(=O)[C@H](CCCNC(=N)N)NC(=O)[C@H](CCCNC(=N)N)NC(=O)[C@H](CC(C)C)NC(=O)CNC(=O)[C@H](CCC(N)=O)NC(=O)[C@@H](NC(=O)[C@@H](NC(=O)[C@H](Cc1c[nH]c2ccccc12)NC(=O)[C@@H](NC(=O)[C@H](CCC(=O)O)NC(=O)[C@@H]1CCCN1C(=O)[C@@H](N)CCCNC(=N)N)[C@@H](C)CC)[C@@H](C)CC)[C@@H](C)O)C(=O)NCC(=O)N[C@@H](CC(=O)O)C(=O)N[C@@H](CCC(=O)O)C(=O)N[C@@H](Cc1ccccc1)C(=O)N[C@@H](CC(N)=O)C(=O)N[C@@H](C)C(=O)N[C@@H](Cc1ccc(O)cc1)C(=O)N[C@@H](Cc1ccc(O)cc1)C(=O)N[C@@H](C)C(=O)N[C@@H](CCCNC(=N)N)C(N)=O,"cells, 2924 murine, Myc/Bcl-2, Bcl-2 dependent","mitochondrial depolarization, BH3 profiling with JC-1",3 h,11 ± 5 µM
[Cl][Ru][Cl].c1cnc2c(c1)ccc1cccnc12.c1cnc2c(c1)ccc1cccnc12.c1cnc2c(c1)ccc1cccnc12,SK-MEL-28,resazurin viability,"dark, normoxia",> 300 µM
COc1cc(/C=C/c2ccc(O)cc2)cc(OC)c1,iPSC-derived cardiomyocytes,"concentration-response curve, item: MyBP-C protein level",24 h,16.5 µM
C[C@]12CCCN1CC1=NNC(=O)c3cc(F)cc4[nH]c2c1c34,SW948 colorectal cancer cells,cell viability,"concentration not given, added: with temozolomide",> 3 µM
CC(C)NCCCn1c(Sc2cc3c(cc2I)OCO3)nc2c(N)ncnc21,iPSC-derived cardiomyocytes,"concentration-response curve, item: MyBP-C protein level",24 h,4.8 µM
Cc1cc(Nc2ncc(Cl)c(Nc3ccccc3S(=O)(=O)C(C)C)n2)c(OC(C)C)cc1C1CCNCC1,"iPSC-derived neurons, 2-week differentiating","metabolic activity, CellTiter-Blue",24 h,6.8 µM
COc1cnc2cccc(N3CCc4c(cc(Cn5ccnc5C)cc4-c4cn(C)nc4C(F)(F)F)C3=O)c2c1,TE-11,"cell growth, inhibitor",120 h,0.0939 µM
Cc1cc2c(C(N)=O)cccc2n1-c1nc2c(c(NCc3ccccc3)n1)COCC2,HEK293T stably expressing ATF4-FLuc,"ISR reporter gene, activator",,0.931 µM
CC1(C)CCC(c2ccc(Cl)cc2)=C(CN2CCN(c3ccc(C(=O)NS(=O)(=O)c4ccc(N[C@H](CCN5CCOCC5)CSc5ccccc5)c(S(=O)(=O)C(F)(F)F)c4)cc3)CC2)C1,canine nodal B-cell lymphoma cells,cell killing,24 h,0.65 µM
CCn1c(=Cc2cccc[n+]2C)sc(=C2Sc3ccccc3N2C)c1=O,iPSC-derived cardiomyocytes,"concentration-response curve, item: MyBP-C protein level",,> 50 µM
O=C(NN=Cc1ccc(Cl)cc1)C1CC(=O)N(c2ccc(F)cc2F)C1 (centres unmarked),human foreskin fibroblasts CRL-4001,"cell viability, MTT",72 h,66 ± 7.2 µM
C=C1C(=O)O[C@H]2[C@H]1CC/C(C)=C/CC[C@@]1(C)O[C@@H]21,iPSC-derived cardiomyocytes,"concentration-response curve, item: MyBP-C protein level",24 h,6.6 µM
Cc1nn(-c2nc3c(F)cc(F)cc3s2)c(O)c1C(c1ccc(C(F)(F)F)cc1)c1c(C)nn(-c2nc3c(F)cc(F)cc3s2)c1O,THP1-Dual,"IFN reporter gene, inhibitor, luciferase reporter",added: HT-DNA,11.6 µM and 11.4 µM
CCn1cc(-c2cc(Cn3ccnc3)cc3c2CCN([C@H](c2cc(OC)ccn2)C2CC2)C3=O)c(C(F)(F)F)n1,SNU1196,cell growth,120 h,12.5 µM
[Cl-].[Cl-].[Ru+2].c1cnc2c(c1)ccc1cccnc12.c1cnc2c(c1)ccc1cccnc12.c1csc(-c2ccc(-c3ccc(-c4nc5c6cccnc6c6ncccc6c5[nH]4)s3)s2)c1,SK-MEL-28,resazurin viability,"normoxia, added: green light 523 nm",0.3 µM
CCn1c(=O)/c(=C2\Sc3ccccc3N2C)s/c1=C\c1cccc[n+]1CC,iPSC-derived cardiomyocytes,"concentration-response curve, item: MyBP-C protein level",,> 50 µM
O=C(NN=Cc1ccc(Br)cc1)C1CC(=O)N(c2ccc(F)cc2F)C1 (centres unmarked),human foreskin fibroblasts CRL-4001,"cell viability, MTT",72 h,43.3 ± 5.8 µM
CCCC[C@@H]1NC(=O)[C@H](Cc2ccc(O)cc2)NC(=O)[C@@H]2CCCN2C(=O)[C@H](CC(=O)O)NC(=O)[C@H](C)NC(=O)[C@H](Cc2ccccc2)NC(=O)[C@@H]2CSCCC(=O)N3CN(CN(C3)C(=O)CCSC[C@@H](C(=O)N[C@@H](C)C(N)=O)NC1=O)C(=O)CCSC[C@H](NC(C)=O)C(=O)N[C@@H](CC(C)(C)C)C(=O)N1CCC[C@H]1C(=O)N[C@@H](CCC(=O)O)C(=O)N[C@H](CCCCNC(=O)CCc1cn(CCOCCOCCOCCOCCOCCC(=O)N[C@H]3CSCCC(=O)N4CN5CN(C4)C(=O)CCSC[C@H](NC(=O)[C@@H](CC(=O)O)NC(=O)[C@H](Cc4cccc6ccccc46)NC(=O)[C@@H]4CCCN4C3=O)C(=O)N[C@@H](CCSC)C(=O)N[C@@H](CCCCNC(=N)N)C(=O)N[C@@H](CC(=O)O)C(=O)N[C@@H](Cc3c[nH]c4ccccc34)C(=O)N[C@@H](CO)C(=O)N[C@@H]([C@@H](C)O)C(=O)N3CCC[C@H]3C(=O)N3C[C@H](O)C[C@H]3C(=O)N[C@@H](Cc3c[nH]c4ccccc34)C(=O)N[C@H](C(N)=O)CSCCC5=O)nn1)C(=O)N1CCC[C@H]1C(=O)N[C@@H](Cc1ccc(O)cc1)C(=O)N2,human PBMC with HT-1376 coculture,IL-2 secretion,added: anti-CD3,0.0016 µM

# Repeated from above:
SMILES,cell line,test,setting,EC50
O=C(NN=Cc1ccc(Cl)cc1)C1CC(=O)N(c2ccc(F)cc2F)C1 (centres unmarked),human foreskin fibroblasts CRL-4001,"cell viability, MTT",72 h,66 ± 7.2 µM
C=C1C(=O)O[C@H]2[C@H]1CC/C(C)=C/CC[C@@]1(C)O[C@@H]21,iPSC-derived cardiomyocytes,"concentration-response curve, item: MyBP-C protein level",24 h,6.6 µM
Cc1nn(-c2nc3c(F)cc(F)cc3s2)c(O)c1C(c1ccc(C(F)(F)F)cc1)c1c(C)nn(-c2nc3c(F)cc(F)cc3s2)c1O,THP1-Dual,"IFN reporter gene, inhibitor, luciferase reporter",added: HT-DNA,11.6 µM and 11.4 µM
CCn1cc(-c2cc(Cn3ccnc3)cc3c2CCN([C@H](c2cc(OC)ccn2)C2CC2)C3=O)c(C(F)(F)F)n1,SNU1196,cell growth,120 h,12.5 µM
